Results collected from several papers.
Compare with care: the assays were run in different laboratories. “And” joins repeats or separate records; there may be more than shown. ± gives the spread as reported.
Chain of UniProt Q9H3Y6 (whole entry, looked up): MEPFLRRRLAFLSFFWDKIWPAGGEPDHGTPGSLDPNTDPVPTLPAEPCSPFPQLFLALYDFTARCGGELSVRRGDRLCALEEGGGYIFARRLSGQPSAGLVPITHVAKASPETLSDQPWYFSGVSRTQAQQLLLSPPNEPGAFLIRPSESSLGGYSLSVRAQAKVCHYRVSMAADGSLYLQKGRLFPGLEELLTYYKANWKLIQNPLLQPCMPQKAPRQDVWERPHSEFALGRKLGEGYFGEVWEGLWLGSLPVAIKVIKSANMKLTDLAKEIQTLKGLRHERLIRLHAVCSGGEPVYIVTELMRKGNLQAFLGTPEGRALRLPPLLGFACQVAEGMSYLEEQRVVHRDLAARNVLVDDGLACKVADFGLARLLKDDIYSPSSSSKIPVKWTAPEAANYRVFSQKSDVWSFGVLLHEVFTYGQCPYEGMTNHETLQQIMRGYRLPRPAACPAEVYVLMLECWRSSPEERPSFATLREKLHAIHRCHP

| SMILES | target or system | test | system | conditions | how to read | measurement | result |
| --- | --- | --- | --- | --- | --- | --- | --- |
| COCC1CN(C2CCN(c3cc(OC)c(Nc4ncc(Br)c(Nc5ccc6c(c5P(C)(C)=O)OCCO6)n4)cc3C)CC2)C1 | – | RECIST 1.1 | advanced EGFR-mutant NSCLC patients | 60 mg once daily | – | not evaluable patients | 0% |
| Nc1nc2cc(CC[C@H]3C[C@@H](n4ccc5c(N)ncnc54)[C@H](O)[C@@H]3O)ccc2cc1Br | – | – | NCI-H441 xenograft, mouse | 1.0 mg/kg/day, day 38 | – | %ΔTGI | 44.8% |
| CN1CCC[C@]1(C)/C=C/S(=O)(=O)NC(=O)Nc1c2c(cc3c1CCC3)CCC2 | – | – | human, whole blood ex vivo | 50 mg twice daily, day 14, 6 h, multiple ascending dose, together with: LPS and ATP | – | IL-1β inhibition | 99% |
| C=C(NC(=O)c1csc(-c2nc3c(cc2O)-c2nc(cs2)C(=O)NC(C(C)O)C(=O)NC(=C(C)OC)c2nc(cs2)C(=O)NC2c4nc(cs4)C(=O)NC(COC(=O)c4c5c6c(cccc6n4O)COC(=O)C(OC4CC(C)(O)C(N(C)C)C(C)O4)C2OC5)c2nc-3cs2)n1)C(N)=O (stereo not drawn) | – | – | Sprague-Dawley rat, male, plasma | intravenous infusion, 2 mg/kg single dose | – | volume of distribution | 9.3 L/kg |
| COC1OC(C)C(OC2OC(C)C(OS(=O)(=O)O)C(OC3OC(C)C(OC4OC(C)C(OS(=O)(=O)O)C(OC5OC(C)C(OC6OC(C)C(OS(=O)(=O)O)C(OC7OC(C)C(OS(=O)(=O)O)C(OS(=O)(=O)O)C7O)C6O)C(OS(=O)(=O)O)C5O)C4O)C(OS(=O)(=O)O)C3O)C2O)C(OS(=O)(=O)O)C1O (stereo not drawn) | – | – | human plasma | 128 µg/mL | – | activated partial thromboplastin time | 36.4 ± 0.4 s |
| COc1ccc(NC(=O)c2ccc3[nH]c(-c4ccc(N(C)C)cc4)nc3c2)cn1 | – | – | CT26, BALB/c mice, subcutaneous syngeneic graft | dose not given, day 7 | – | tumour volume | 212 mm3 and 117 mm3 and 226 mm3 and 172 mm3 and 141 mm3 |
| COC1CN([C@H]2CC[C@H]([C@@]3(C)Oc4c(Cl)cc(C(=O)NCc5c(SC)cc(C)[nH]c5=O)c(C)c4O3)CC2)C1 | – | RNA-seq, item: SGCB | human, whole blood | dose not given, 24 h | relative to: pretreatment baseline | log2 fold change | 1.09 |
| C=CC(=O)Nc1cccc(Cn2ncc3cnc(Nc4cnn(CCOC)c4)nc32)c1 | PRKG2 human | binding, KINOMEscan | – | 100 nM | lower = stronger binding | percent of control | 100% |
| Cc1nn(-c2cccc(N)c2)c(=O)c2cnc(Nc3ccc(N4CCNCC4)cc3)nc12 | SRMS (Homo sapiens, UniProt Q9H3Y6) | enzyme activity, inhibitor | – | – | – | IC50 | 1.83 µM |
| Nc1ncc(-c2cc(-c3cnn(CC(F)(F)F)c3)ncc2F)nc1C(=O)NC1CNCC(F)C1 (stereo not drawn) | TSSK1B | KINOMEscan | – | 1 µM | relative to: DMSO control | remaining binding | 72% |
| C=CC(=O)N1[C@H](c2ccc3c(c2)OCO3)c2[nH]c3ccccc3c2C[C@@H]1C(=O)N1CCN(C)CC1 | human cyclin E1 N112C-3xFLAG:CDK2 | co-IP with TMT proteomics, item: PRPF8 | – | concentration not given, Q6P2Q9 | relative to: wild type DMSO | relative co-enrichment | 136% |
| COC1OC(C)C(OC2OC(C)C(O)C(OC3OC(C)C(OC4OC(C)C(O)C(OC5OC(C)C(OC6OC(C)C(O)C(OS(=O)(=O)O)C6OS(=O)(=O)O)C(OS(=O)(=O)O)C5OS(=O)(=O)O)C4OS(=O)(=O)O)C(OS(=O)(=O)O)C3OS(=O)(=O)O)C2OS(=O)(=O)O)C(OS(=O)(=O)O)C1OS(=O)(=O)O (stereo not drawn) | – | – | human plasma | 32 µg/mL | – | activated partial thromboplastin time | 53.2 s and 55.9 s and 54.5 s |
| CC(=O)[O-].O.O.O.O.[Co+2].[O-]c1ccc(Br)cc1C=NCCN1CCOCC1 | – | superoxide scavenging | – | 80 µM | – | inhibition | 13% |
| COC1OC(C)C(OS(=O)(=O)O)C(OC2OC(C)C(OS(=O)(=O)O)C(OC3OC(C)C(OS(=O)(=O)O)C(OC4OC(C)C(OS(=O)(=O)O)C(OC5OC(C)C(OS(=O)(=O)O)C(OS(=O)(=O)O)C5OS(=O)(=O)O)C4OS(=O)(=O)O)C3OS(=O)(=O)O)C2OS(=O)(=O)O)C1OS(=O)(=O)O (stereo not drawn) | – | – | human plasma | 32 µg/mL | – | activated partial thromboplastin time | 61.6 s and 61.3 s and 62.9 s |
| COc1cc(O)ccc1CCC(c1ccc(O)cc1)c1cc2c(c(C)c1O)OC(c1ccc(O)cc1)CC2 (mixture of isomers) | – | item: PGD2 | human whole blood | 3 µM, together with: Escherichia coli | – | amount | 126 ± 55 pg/mL blood |

Excerpt of the above:
| SMILES | target or system | test | system | conditions | how to read | measurement | result |
| --- | --- | --- | --- | --- | --- | --- | --- |
| COC1OC(C)C(OC2OC(C)C(O)C(OC3OC(C)C(OC4OC(C)C(O)C(OC5OC(C)C(OC6OC(C)C(O)C(OS(=O)(=O)O)C6OS(=O)(=O)O)C(OS(=O)(=O)O)C5OS(=O)(=O)O)C4OS(=O)(=O)O)C(OS(=O)(=O)O)C3OS(=O)(=O)O)C2OS(=O)(=O)O)C(OS(=O)(=O)O)C1OS(=O)(=O)O (stereo not drawn) | – | – | human plasma | 32 µg/mL | – | activated partial thromboplastin time | 53.2 s and 55.9 s and 54.5 s |
| CC(=O)[O-].O.O.O.O.[Co+2].[O-]c1ccc(Br)cc1C=NCCN1CCOCC1 | – | superoxide scavenging | – | 80 µM | – | inhibition | 13% |
